Measurements from different studies.
Lines come from different studies, so protocols differ. Numbers after ± are the reported error. In brackets after ≈: the same amount, converted by molar mass.

CO/N=C1\C[C@]2(C[C@@H]3C[C@@H](C/C=C(\C)C[C@@H](C)/C=C/C=C4\CO[C@@H]5[C@H](O)C(C)=C[C@@H](C(=O)O3)[C@]45O)O2)O[C@H](/C(C)=C/C(C)C)[C@H]1C
faecal egg count reduction (Haemonchus contortus; multidrug resistant, sheep; oral, 0.2 mg/kg, day 10 post-treatment, added: closantel 10 mg/kg): 87%

Cc1ccc(NC(=O)c2ccc(CN3CCN(C)CC3)cc2)cc1Nc1nccc(-c2cncc(-c3oncc3C)c2)n1
MDS-UPDRS part III score (mild-to-moderate Parkinson's disease patients; oral, 100 mg once daily, day 7, practically defined OFF state; direction not given): 48.4 ± 20

CC(C)C[C@H](NC(=O)[C@H](CO)NC(=O)[C@H](CCCNC(=N)N)NC(=O)[C@H](CC(=O)O)NC(=O)[C@H](CCC(=O)O)NC(=O)[C@H](C)NC(=O)[C@@H]1CCCN1C(=O)[C@H](C)NC(=O)[C@H](CCC(=O)O)NC(=O)[C@@H]1CCCN1C(=O)[C@@H]1CCCN1)C(N)=O
DOPAC level (HPLC-EC; F344 rat, normal, substantia nigra; intranasal, 1000 µg, 5 days/week for 3 weeks): 124 ± 27 ng/g

NNC(=O)Cn1cc(COc2ccccc2-c2nc(-c3ccccc3)no2)nn1
mRNA level (A549; qPCR, refers to: TP53; concentration not given, 24 h; reference: untreated): 5.5 ± 0.003 fold

Clc1ccc2cc(-c3ccccc3)[nH]c2c1
inhibition (RAW264.7; NO release, inhibitor, Griess; 50 µM, 20 h, LPS-stimulated): 36.3%

O=C(Cn1cc(COc2ccccc2-c2nc(Cc3ccccc3)no2)nn1)NNC(=S)Nc1ccccc1
mRNA level (Caco-2; qPCR, refers to: EGFR; IC50, 24 h; reference: untreated cancer cells): 0.423 ± 0.005 fold

CON=Cc1c(-c2ccccc2)[nH]c2ccccc12
viability (RAW264.7; sulforhodamine B; 50 µM, 20 h; reference: vehicle): 48.3 ± 7.8%

NC(=O)Cn1cc(COc2ccccc2-c2nc(-c3ccccc3)no2)nn1
mRNA level (Caco-2; qPCR, refers to: mTOR; IC50, 24 h; reference: untreated cancer cells): 0.35 ± 0.005 fold

COc1ccc2cc(-c3cc4ccccc4[nH]3)ccc2c1
inhibition (RAW264.7; NO release, inhibitor, Griess; 50 µM, 20 h, LPS-stimulated): 13.9%

CS(=O)(=O)c1ccc(-c2cnc(N)c(-c3ccc(C(F)(F)F)nc3)c2)cc1
EC90 (Plasmodium falciparum; SCID mice, blood): 0.16 µg/mL (≈ 0.407 µM)

O=Cc1c(-c2ccccc2)[nH]c2ccccc12
inhibition (RAW264.7; NO release, inhibitor, Griess; 50 µM, 20 h, LPS-stimulated): 30.6%

Cc1cc(C(C#N)c2ccc(Cl)cc2)c(Cl)cc1NC(=O)c1cc(I)cc(I)c1O (stereo not drawn)
faecal egg count reduction (Haemonchus contortus; multidrug resistant, sheep; subcutaneous, 5 mg/kg, day 10 post-treatment, added: moxidectin 0.2 mg/kg): 89%

Repeated from above:
NC(=O)Cn1cc(COc2ccccc2-c2nc(-c3ccccc3)no2)nn1
mRNA level (Caco-2; qPCR, refers to: mTOR; IC50, 24 h; reference: untreated cancer cells): 0.35 ± 0.005 fold
